Measurements of several laboratories.
Each line is one published result; not all experiments were run side by side. Several values in a cell are separate wells, animals, samples, runs or records. Numbers after ± are the reported error. ≈ marks a conversion by molar mass, not a printed value. Ends that are not written are not given here. * marks the point of attachment.

Substance = c1ccc(CN(Cc2cccc(CN(Cc3ccccc3)CC3CC3)n2)CC2CC2)cc1; system = mouse carrageenan paw edema; conditions = ip, 10 mg/kg daily, 74 h; how to read = relative to: vehicle; endpoint = paw edema inhibition; result = < 20%
Substance = insulin aspart; assay = euglycaemic clamp; system = type 1 diabetes patients; conditions = subcutaneous, 0.2 U/kg single, 0-60 min, antibody quartile 2, 3.12-6.53 %B/T; endpoint = AUC glucose infusion rate; result = 113 mg/kg
Substance = Cc1cc(C)c(/C=C2\C(=O)Nc3ccccc32)[nH]1; assay = MRI; system = human; conditions = concentration not given, 5.9 months; endpoint = tumour area; result = 1.48 cm²
Substance = COc1cccc2c1C(=O)c1c(O)c3c(c(O)c1C2=O)C[C@@](O)(C(=O)CO)C[C@@H]3O[C@H]1C[C@H](N)[C@H](O)[C@H](C)O1; system = mice, BT-474 xenograft; conditions = intraperitoneal, 1.5 mg/kg, week 7, after sixth treatment; how to read = relative to: pretreatment; endpoint = tumour volume; result = 80.4 ± 46.5%
Substance = COc1ccc(-c2nc3ccccc3s2)cc1OCc1nnc(-c2ccc([N+](=O)[O-])cc2)o1; assay = hind limb tonic extension; system = albino mouse, MES-induced seizure; conditions = ip, 0.5 h; endpoint = minimal effective dose; result = 30 mg/kg
Substance = CS/C(S)=N/CCCC[S+](C)[O-] (racemic); assay = RT-PCR, refers to: Nos2 (inducible); system = rat, colon; conditions = oral gavage, 200 mg/kg, 96 h, dosed for four days; how to read = relative to: vehicle; endpoint = mRNA fold change; result = 2.32
Substance = C[N+]1([O-])CCN(C2=Nc3cc(Cl)ccc3Nc3ccccc32)CC1; assay = agonist; system = DAT-cre-ribotag mice, hM3Dq in SN, dorsal striatum; conditions = subcutaneous, 0.3 mg/kg, 30 to 45 min; endpoint = DOPAC/DA ratio; result = 1.77 ± 0.08
Substance = WLLPGTSTV; assay = agonist tetramer binding, flow cytometry; system = peptide, CD8+ T cells primed with compound, human; conditions = dose not given, 10 days; endpoint = tetramer-positive CD8+ T cells; result = 66.1% and 66%
Substance = Cc1c2ccccc2c(C)c2c1ccc1ccccc12; assay = refers to: adrenal hemorrhage; system = rat; conditions = oral, in oil, against adrenal apoplexy from challenge, together with: challenge 5 mg iv; endpoint = non-protective dose; result = 1.5 mg
Substance = neuropeptide Y; system = Sprague Dawley rat, urethane-anaesthetised; conditions = intravenous, 5 nmol; endpoint = time to peak tachycardia; result = 12.1 ± 3.9 min
Substance = Cc1c(OCC(F)(F)F)ccnc1C[S@@+]([O-])c1nc2ccccc2[nH]1; system = healthy human; conditions = oral, single dose, 60 mg, modified release, 12 to 24 h, crossover vs esomeprazole; endpoint = mean intragastric pH; result = 4.5
Substance = Nc1ccc2ccc3c4ccccc4ccc3c2c1; assay = inducer; system = female rat, liver; conditions = oral, 1 mg, 24 h, sesame oil vehicle; endpoint = menadione reductase activity; result = 38.8 enzyme units
Substance = CCCCOC(=O)/C=C/c1ccc(O)c(O)c1; assay = DPPH; system = ethanol; conditions = 20 µM, 30 min, room temperature; endpoint = radical scavenging; result = 63%
Substance = CC(C)n1cnc(-c2ccc(F)cc2)c1-c1ncc(C(=O)Nc2ccc(N3CCN(C)CC3)cc2)[nH]1; system = human patients, serum; conditions = 30 mg twice daily, Padj below 0.05, unit not given; how to read = relative to: placebo; endpoint = differentially abundant proteins; result = 8
Substance = CCOC(=O)C=Cc1ccc(O)c(O)c1; assay = DPPH; system = ethanol; conditions = 20 µM, 30 min, room temperature; endpoint = radical scavenging; result = 72%
Substance = COc1ccc(-c2nc3ccccc3s2)cc1OCc1nnc(-c2ccc(Cl)cc2)o1; assay = hind limb tonic extension; system = albino mouse, MES-induced seizure; conditions = ip, 4.0 h; endpoint = minimal effective dose; result = 100 mg/kg
Substance = gamma-MSH; system = Sprague Dawley rat, urethane-anaesthetised; conditions = intravenous, 15 nmol; endpoint = time to peak MAP response; result = 38.5 ± 2.3 min
Substance = O=C(CCCCCCC(=O)Nc1ccccc1)NO; system = human, refractory or recurrent neuroblastoma; conditions = dose not given, together with: isotretinoin; endpoint = median overall survival; result = 30.8 months
Substance = CC(/C=C/C(=O)NO)=C\[C@@H](C)C(=O)c1ccc(N(C)C)cc1; assay = inhibitor, ELISA; system = wild-type mice, serum; conditions = dose not given, 2 h after LPS, daily dosing from day -2, LPS on day 0, together with: LPS; how to read = relative to: LPS-treated vehicle; endpoint = serum TNF-α reduction; result = 62%
Substance = CC(C)C[C@H](NC(=O)CCOCCOCCOCCNC(=O)COCC(=O)Nc1ccc(Oc2ccc3c4nc5nc(nc6[nH]c(nc7nc(nc([nH]4)c3c2)-c2cc(C(C)(C)C)ccc2-7)c2ccc(C(C)(C)C)cc62)-c2ccc(C(C)(C)C)cc2-5)cc1)C(=O)N[C@@H](C)C(=O)N[C@@H](CCCNC(=N)N)C(=O)N[C@@H](CC(C)C)C(=O)N[C@@H](CC(C)C)C(=O)N[C@H](C(N)=O)[C@@H](C)O; assay = near-IR fluorescence imaging; system = nude mice, HT-29 xenograft; conditions = intravenous, 10 mg/kg; endpoint = time to tumour visibility; result = 24 h
Substance = Palmitoyl-SMTSCAPS (N-palmitoyl; Palmitoyl = CCCCCCCCCCCCCCCC(=O)*); system = AsPC-1, male SCID mice, subcutaneous AsPC-1 xenograft; conditions = intratumoral, 500 µg/mouse/day, 3 weeks, PBS with 80% DMSO vehicle; endpoint = tumour volume; result = 386 ± 95 mm³
Substance = COc1ccc(-c2nc3ccccc3s2)cc1OCc1nnc(-c2ccc(Br)cc2)o1; assay = hind limb tonic extension; system = albino mouse, MES-induced seizure; conditions = ip, 0.5 h; endpoint = minimal effective dose; result = 300 mg/kg
Substance = O=C(/C=C/c1ccc(O)c(O)c1)Oc1ccccc1; assay = DPPH; system = ethanol; conditions = 20 µM, 30 min, room temperature; endpoint = radical scavenging; result = 67%
Substance = CCc1c2ccccc2c(CC)c2c1ccc1ccccc12; assay = adrenal apoplexy prevention; system = rat; conditions = oral, together with: 7,12-DMBA 5 mg i.v.; endpoint = non-protective dose; result = 0.5 mg
Substance = CC(C)(O)c1ccccc1-c1ccc2[nH]c(/C=C/c3ccc(C(F)(F)F)cc3)nc2c1; system = human; conditions = max heat pain tolerance reached; endpoint = plasma concentration; result = > 100 ng/mL
Substance = C[C@H]1C[C@H]2CSC(N)=N[C@@]2(c2nc(NC(=O)c3ccc(OC(F)F)cn3)cs2)CO1; assay = refers to: CSF Aβ1–42; system = healthy adults; conditions = 50 mg once daily, 14 days, day 15; how to read = relative to: placebo-adjusted baseline; endpoint = change from baseline; result = -69.9%
Substance = CC1CCc2c1ccc1c2ccc2ccccc21 (centres unmarked); assay = adrenal apoplexy prevention; system = rat; conditions = oral, together with: 7,12-DMBA 5 mg i.v.; endpoint = non-protective dose; result = 0.5 mg
Substance = zoledronic acid; system = human; conditions = 5 mg, together with: calcitonin 4 units/kg 2 doses; endpoint = serum calcium; result = 12.8 mg/dL
Substance = CC[C@@H](C(=O)Nc1ccc(C(N)=O)c(F)c1)n1cc(OC)c(-c2cc(Cl)ccc2-n2cc(C(F)(F)F)nn2)cc1=O; assay = APTT prolongation; system = human plasma; endpoint = EC150; result = 0.61 µM
Substance = CC(=O)O[C@@]12CO[C@@H]1C[C@H](O)[C@@]1(C)C(=O)[C@H](O)C3=C(C)[C@@H](OC(=O)[C@H](O)[C@@H](NC(=O)OC(C)(C)C)c4ccccc4)C[C@@](O)([C@@H](OC(=O)c4ccccc4)[C@H]21)C3(C)C; system = mice bearing PC-3 xenografts; conditions = 5 mg/kg once weekly, 14 days after inoculation, treated 3 weeks; endpoint = tumour volume; result = 114 ± 31.1 mm3
Substance = O=C(O)c1cc(O)c(O)c(O)c1; assay = ABTS scavenging, absorbance; endpoint = EC50; result = 560 µM
Substance = COc1ccc(-c2nc3ccccc3s2)cc1OCc1nnc(-c2ccc(N)cc2)o1; assay = seizure protection; system = albino mouse, scPTZ-induced seizure; conditions = ip, 4.0 h; endpoint = minimal effective dose; result = 100 mg/kg
Substance = O=C(NC[C@H]1CN(c2ccc(N3CCOCC3=O)cc2)C(=O)O1)c1ccc(Cl)s1; system = human, mild renal impairment, plasma; conditions = oral, 10 mg, together with: erythromycin at steady state; how to read = relative to: same subjects, compound alone; endpoint = prothrombin time AUC(0-48h) increase; result = ~19%
Substance = CCCCC[C@H](O)/C=C/[C@H]1[C@H](O)CC(=O)[C@@H]1CCCCCCC(=O)O; assay = antagonist; system = Rhinella marina urinary bladder; conditions = together with: [2-O-methyltyrosine]-oxytocin; how to read = relative to: response without compound; endpoint = minimal maximal response fraction; result = 0.1
Substance = Cc1cnc(-c2ccnc(C(C)(C)O)n2)cc1-n1c(C)cc(OCc2ncc(F)cc2F)c(Cl)c1=O; assay = IL-1β release, inhibitor; system = human, whole blood, ex vivo; conditions = plasma concentration, together with: LPS; endpoint = IC80; result = 0.0408 µg/mL (≈ 0.0794 µM)
Substance = O=C1NC(=O)C(c2ccccc2)(c2ccccc2)N1; assay = hind limb tonic extension; system = albino mouse, MES-induced seizure; conditions = ip, 0.5 h; endpoint = minimal effective dose; result = 30 mg/kg
Substance = CN(Cc1cc(Br)cc(Br)c1N)C1CCCCC1; system = ICR SCID mice, TRAMP cells iv, lung; conditions = 30 mg/kg, 8 weeks; how to read = relative to: vehicle; endpoint = mice with metastasis; result = 33%
Substance = COc1ccc(-c2nc3ccccc3s2)cc1OCc1nnc(-c2ccc(O)cc2)o1; assay = seizure protection; system = albino mouse, scPTZ-induced seizure; conditions = ip, 0.5 h; endpoint = minimal effective dose; result = 30 mg/kg
Substance = Nc1cc2c3ccccc3ccc2c2ccccc12; assay = adrenal apoplexy prevention; system = rat; conditions = oral, together with: 7,12-DMBA 5 mg i.v.; endpoint = non-protective dose; result = 0.5 mg
Substance = COc1ccc(-c2nc3ccccc3s2)cc1OCc1nnc(C(c2ccccc2)c2ccccc2)o1; assay = hind limb tonic extension; system = albino mouse, MES-induced seizure; conditions = ip, 4.0 h; endpoint = minimal effective dose; result = 100 mg/kg
Substance = O=C1O[C@H]([C@@H](O)CO)C(O)=C1O; assay = DPPH scavenging, absorbance; endpoint = IC50; result = 9.6 µM
Substance = COc1ccc(-c2nc3ccccc3s2)cc1OCc1nnc(-c2c(C)cccc2C)o1; assay = hind limb tonic extension; system = albino mouse, MES-induced seizure; conditions = ip, 4.0 h; endpoint = minimal effective dose; result = 300 mg/kg
Substance = insulin; assay = PET imaging; system = CD IGS rat, ipsilateral lateral gastrocnemius; conditions = intra-arterial (left femoral), 0.34-0.346 IU/kg; endpoint = baseline 18F-FDG SUV; result = 0.222 ± 0.232
Substance = SIYNFEKL; assay = flow cytometry, refers to: CD44hi CD8+ T cells; system = peptide, OT-I CD8+ T cells, mouse; conditions = dose not given, primed 5 days, TGF-β1 from day 2 onward, together with: 20 ng/mL TGF-β1; endpoint = IL-2 only cells; result = 21.8%
Substance = CC(C)(O)CNc1nc(Nc2ccnc(C(F)(F)F)c2)nc(-c2cccc(C(F)(F)F)n2)n1; assay = refers to: 2-hydroxyglutarate; system = human newly diagnosed mIDH AML; conditions = oral, 100 mg once daily, induction cycle 1 day 8, together with: induction chemotherapy; endpoint = plasma 2-HG reduction AUEC0-24; result = 73.9%
Substance = CC(C)c1nc(CN(C)C(=O)N[C@H](C(=O)N[C@@H](Cc2ccccc2)C[C@H](O)[C@H](Cc2ccccc2)NC(=O)OCc2cncs2)C(C)C)cs1; assay = lopinavir intrinsic clearance, interaction modelling; system = human; conditions = dose not given, unbound cpd concentration percentile; endpoint = inhibition; result = -3 to 11%
Substance = CNCC(CS)CNC; system = nude mouse, A-431 xenograft; conditions = topical, 1850 mM, four applications, 14 days, together with: 12.1 Gy irradiation; how to read = relative to: topical vehicle; endpoint = irradiated tumour growth; result = no effect

Excerpt of the above:
Substance = CC(C)c1nc(CN(C)C(=O)N[C@H](C(=O)N[C@@H](Cc2ccccc2)C[C@H](O)[C@H](Cc2ccccc2)NC(=O)OCc2cncs2)C(C)C)cs1; assay = lopinavir intrinsic clearance, interaction modelling; system = human; conditions = dose not given, unbound cpd concentration percentile; endpoint = inhibition; result = -3 to 11%
Substance = Nc1cc2c3ccccc3ccc2c2ccccc12; assay = adrenal apoplexy prevention; system = rat; conditions = oral, together with: 7,12-DMBA 5 mg i.v.; endpoint = non-protective dose; result = 0.5 mg
Substance = neuropeptide Y; system = Sprague Dawley rat, urethane-anaesthetised; conditions = intravenous, 5 nmol; endpoint = time to peak tachycardia; result = 12.1 ± 3.9 min
